Published values of several laboratories.
A part holds a random share of what one study measured.

Set 1
Target: RNA binding protein fox-1 homolog 2, RRM domain, GST-SBP tag (RBFOX2, Homo sapiens, UniProt O43251-10, residues 100-194)
Method: RNA Bind-n-Seq
Molecule type: RNA
Medium: in vitro
Concentration: 365 nM
Setting: natural RNA segment, single round, ends assumed
Relative to: no-protein control
Reading: higher = stronger binding
Quantity: RBNS enrichment (R)
Constant ends, left off below: GGGAGUUCUACAGUCCGACGAUC … UGGAAUUCUCGGGUGCCAA
Residues (chain): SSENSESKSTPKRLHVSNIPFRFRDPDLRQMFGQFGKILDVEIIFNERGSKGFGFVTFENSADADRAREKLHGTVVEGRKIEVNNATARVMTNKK
CUGUUGACGGGACCCCUGCUGUCUUAAGCUUUUCCCCAUAGUGCCUAUAGUUUCCAAAGAAACUUAACUUCCUGGGUAUUAACUUAAUUUUAUUAGAACACUGCAGUUGA: 0.527
GAGGACGGUGGCCCUCUUCUCACAGCUCCACUAGGCAGUGCCCCAGUAGGGACUCUGUGUGGGGGCUCCCACACCACAUUUCCCUUCUGCACUGCCCUAGCAGAGGUUCU: 0.207
GGUCGUACACGAAUGUCUAAAGAGACAUUCAAAACUCGAAUAGGGUGCAGAGUAAUUUCUUACUGUGAGGAAUUGCCCAAUGUAUGGAAAGAUGCAUAGUUGGCUCUCAC: 0.34
CACUCAGCCCUGAGUGUUAGGCACUGGCAGAGAGGCAAUGGCAGGCUCACCUUGAUGGAGGGACUGGGGUGGGUGGGACUACCGCCCCGCCCACCUGUCUGCACUCCUGU: 0.369
UGCUGCCUUAGCUUCUAGAACGGAGCAAGCUUUUACGUACCUAGGUGACAUGUAGAAAAAUUUACAGUAAACUGAAAUGACCAUUUGUCAAUGCAUUGGUGCAUAGGAGU: 0.599
CACCUGUCUCUCUCCGCAUCUCACUGUUAGAUUCUUUUCCACCUUUUUAACAAAUUUGCAUGUCAGUUUCUGUCAUGUUUAUUUAUUGGAUUCUCAGCUGCCUAAUCUGU: 0.765
AGCGCUUGCCCGAGGCCAGCGCGCUCCCCGCGCCAGGACUCCAUUAAAGCCGCUAAGACGCGCGGGCGCUCCGCCUCCACGCCUGUUUUUUGCCUUCCGAGGGCUGCACU: 0.358
UGCGGAAAGGUAACCACAAAGUUAUGAUGAACUGCAAACAUCCAAAGGAUGUGAAAGUUUUUAUAUGUAUAAUGUUUUAUACACUUUUUAACUGGUUGCACUACCCGUGA: 0.255
GAGGACUUUAGAGUUAUAUUCCAACAUUCAACCUAUAGAUAAGAAACAUUUCUAACCUUUGGUUUGCUGACAUGUGUAGUAACUCUCUAAAAUGUCUGGAGAUGGGCAAG: 0.575
CCCCCUCUCCUCUCUGUAAGCCCAUGCCCUGUCUUCCCAGGGACUUGUGAGCCUCUUCCCUCGACGGUCCUCUUCUCUCCUUCCAGUCCUCUCCCCCUGCUGUCUGCAGC: 0.786
UUGUCUAUUAACUGUGAUAAUCUGACUUGAGUCAGAUUGAAUAUUUGGAGUGCUUCCCCAGAAUAACCACUUAUUUUUGAAGCUAUCAUGUGAAGUAUUUUUUUAAAACA: 0.793
CUUUGAGCUAGGGGAGGAGAAUGUAUUAGACUAAAUACAAACUGCGGGGUUGUAAGGGAGUCUCAGAACCUCACUGAAUCCUUCACUCCAGUUAAUGGCACUGCUCACUU: 0.282

Set 2
Target: Prothrombin, mature alpha-thrombin (F2, Homo sapiens, UniProt P00734)
Method: aptamer microarray, sandwich
Molecule type: DNA with 2'F-ANA
Medium: in vitro
Concentration: 200 nM
Setting: whole 15-mer aptamer, many near background
With: Cy3 exosite-II aptamer, 400 nM
Reading: higher = stronger binding
Quantity: mean fluorescence intensity
Oligonucleotide: GGTTGGTGTGGTTGG
2'F-ANA at 2 3 6 8 9 10 11 15: 265 a.u.
2'F-ANA at 1 2 4 8 11 13 14 15: 51.1 a.u.
2'F-ANA at 3 4 9 10 11 12 13 15: 220 a.u.
2'F-ANA at 1 2 3 4 6 10 12 13 14: 50.4 a.u.
2'F-ANA at 6 9 10 11 12 13 15: 145 a.u.
2'F-ANA at 1 2 3 4 5 6 8 11 12: 109 a.u.
2'F-ANA at 3 5 6 8 9 11 13 14 15: 54.7 a.u.
2'F-ANA at 1 2 3 7 8 9 11 12: 430 a.u.
2'F-ANA at 1 2 3 5 6 9 13: 52.9 a.u.
2'F-ANA at 3 9 10 13 14: 439 a.u.
2'F-ANA at 2 4 6 7 9 11 13 14 15: 66.7 a.u.
2'F-ANA at 1 6 8 9 12 13 14: 75.9 a.u.
2'F-ANA at 1 4 5 9 10 11 14 15: 44.3 a.u.
2'F-ANA at 2 3 4 5 7 8 10 15: 55.1 a.u.
2'F-ANA at 2 3 8 10 11 12 13 15: 372 a.u.
2'F-ANA at 3 4 8 13 15: 634 a.u.
2'F-ANA at 1 2 3 9 10 11 13 14: 82.4 a.u.
2'F-ANA at 1 3 5 8 9 12 14: 47.2 a.u.
2'F-ANA at 1 2 6 10 12 14: 48.9 a.u.
2'F-ANA at 2 3 4 6 8 9 10 12: 289 a.u.
2'F-ANA at 1 2 7 8 11 13 15: 127 a.u.
2'F-ANA at 1 2 3 4 6 7 8 11 12 13 14: 69.9 a.u.
2'F-ANA at 1 2 4 5 9 10 13 14 15: 50.8 a.u.
2'F-ANA at 1 2 7 8 12 13 15: 318 a.u.
2'F-ANA at 2 3 5 8 9 12 15: 257 a.u.

Set 3
Target: Ras GTPase-activating protein-binding protein 1, full length (G3BP1, Homo sapiens, UniProt Q13283)
Chain of UniProt Q13283 (whole entry, looked up): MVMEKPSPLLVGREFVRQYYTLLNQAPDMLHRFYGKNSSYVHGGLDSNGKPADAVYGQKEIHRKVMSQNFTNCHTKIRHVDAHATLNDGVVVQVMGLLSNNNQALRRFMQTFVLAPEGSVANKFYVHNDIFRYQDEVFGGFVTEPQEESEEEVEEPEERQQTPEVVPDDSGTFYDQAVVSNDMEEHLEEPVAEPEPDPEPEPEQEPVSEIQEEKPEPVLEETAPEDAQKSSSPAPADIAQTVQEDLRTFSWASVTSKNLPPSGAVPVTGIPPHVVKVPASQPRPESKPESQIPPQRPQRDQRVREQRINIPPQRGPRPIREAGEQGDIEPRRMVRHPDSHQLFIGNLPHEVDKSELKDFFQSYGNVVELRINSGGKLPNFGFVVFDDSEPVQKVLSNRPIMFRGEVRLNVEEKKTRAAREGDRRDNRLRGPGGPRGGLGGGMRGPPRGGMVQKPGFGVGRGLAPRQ
Method: RNA Bind-n-Seq
Molecule type: RNA
Medium: in vitro
Concentration: 200 nM
Setting: whole 134-nt RNA, ends assumed
With: 150 mM LiCl
Relative to: input library
Reading: higher = stronger binding
Quantity: log2 enrichment
All molecules: 7-deaza-guanosine replaces G
Constant ends, left off below: GGGAGUUCUACAGUCCGACGAUC … UGGAAUUCUCGGGUGUCAAGG
UCCUGUGCUACACAUCGUAUGUACCGAAUCAAAUUUUUUUAAACCCCCAAAUUUUUAAAAAAGUAUUAUGUUACGCCGUUCGGAUCUGCA: -0.288
UCCUGUGCUACACAUCGUAUGUACCGAAUCGGAAAAAAAGGAAAAAAAGGAAAAAAAGGAAAGUAUUAUGUUACGCCGUUCGGAUCUGCA: -0.561
UAACUUUAGAGGAGGAUCUGACGGAUAUGGCAGUGGACGUGGAUUUGGGGAUGGCUAUAAUGGGUAUGGAGGAGGACCUGGAGGUGGCAA: 0.0557
UGCAUCUGCACUGGAGAAAUGGAAGACAGCAAUCCGGGAAGCUCAGACUUUCUCCAGGAUGCACGUGCUGCUUGGGAUGCUUGAUGCCUG: -0.994
UAUGCCACGCCCUUUGAGGACUCGAAGAUCAUGGUCUCUGACUUUGGACUCUCCAAAAUCCAGGCUGGGAACAUGCUAGGCACCGCCUGU: 0.235
AAGUCCUGUGCUACACAUCGUAUGUACCGAAUCGGAGGAAAAAAAGGUUUUUUUGGAAAGUAUUAUGUUACGCCGUUCGGAUCUGCACUU: -1.29
CAAAGACAACACGCACCCACACAGACACAGAGGGAAGGGGUUGGGAUGGGGACAGGGUGCACAGCAGGGCGGGGUAGGACCCCAGCCCCU: 0.471
CAAGUCCUGUGCUACACAUCGUAUGUACCGAAUCGGGAGGGAAAAAGGGAAAGGGAAAGUAUUAUGUUACGCCGUUCGGAUCUGCACUUC: -0.0265

Set 4
Target: Interferon regulatory factor 5, full length, phosphomimetic (IRF5, Homo sapiens, UniProt Q13568-2, residues 1-514, S451D/S453D/S456D/S462D)
Method: protein-binding microarray
Molecule type: double-stranded DNA, one strand shown
Medium: in vitro
Concentration: 940 nM top
Setting: 60-bp whole probe
With: salmon DNA 0.4 mg/ml
Relative to: random background probes
Reading: higher = stronger binding
Quantity: fitted relative affinity
Constant ends, left off below: GCCTAGCAC … GTCTTGATTCGCTTGACGCTGCTG
TTAGGTATCTGTTTCGGTTAGTGCTAG: 6.36 z-score
GACGATATCAGTCTCGAGAAGTGCTAG: 0.953 z-score
GTAGATATCGGGACTGGATTAGTGCTA: -0.25 z-score
GTCGGTTTCCTTTTCCTGACGTGCTAG: 4.35 z-score
GACGGAATCGACTTTCGGGACGTGCTA: 1 z-score
GACGGTTTCGGTCCCGGGACGTGCTAG: 13.6 z-score
TTGGCTTATTCCAGATTTTTGTGCTAG: 0.26 z-score
GTAGGTTTCCTTTTCCTTTAGTGCTAG: 2.12 z-score
GACGGACTGGTTATCGGGACGTGCTAG: 0.0242 z-score
GACGACTCCAGTTTCGAGACGTGCTAG: 4.29 z-score
GCCTTTTATTTGAAAGAAATGTGCTAG: 0.236 z-score
TCAAATATTTACCTCTCACTGTGCTAG: 0.78 z-score

Some of these lines once more (set 4):
GACGGACTGGTTATCGGGACGTGCTAG: 0.0242 z-score
TCAAATATTTACCTCTCACTGTGCTAG: 0.78 z-score
GTAGATATCGGGACTGGATTAGTGCTA: -0.25 z-score
GCCTTTTATTTGAAAGAAATGTGCTAG: 0.236 z-score
GTAGGTTTCCTTTTCCTTTAGTGCTAG: 2.12 z-score
